# Measured values from different studies.
# Parts stem from different laboratories: compare values within a part only. Positions count from the first letter of the parent shown.

# Block 1
# Target: Histone acetyltransferase KAT6A, winged helix 2, GST fusion (KAT6A, Homo sapiens, UniProt Q92794, residues 85-181)
# Method: protein binding microarray
# Form: double-stranded DNA, one strand shown
# Matrix: in vitro
# Tested at: not given
# Notes: 8-mer, flanks averaged, mean of 2 arrays, mostly near background
# Reference: not given
# Reading: higher = stronger binding
# Residues (chain): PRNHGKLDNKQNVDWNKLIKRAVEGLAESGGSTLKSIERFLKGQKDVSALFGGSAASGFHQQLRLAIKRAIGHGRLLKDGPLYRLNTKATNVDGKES
Sequence,E-score
AGTTGCAC,-0.0171
GGAGGAAA,0.143
CTCAAAGC,0.0777
CCCTTCCA,0.0813
GAAAAGCC,0.0502
CGGATTCA,-0.00234
AGTTTGTA,-0.15
GAAGTTAA,-0.175
ACTGTGCC,0.016
GGGACAAC,-0.104
CGACTTGC,-0.114
ACATGAGT,-0.225
AAAACAAT,0.0375
GACCGACC,0.0891
GAGGAATC,0.00642
ACGGACGG,-0.00168
CTCTCGAA,-0.0253
CGCGTAGA,0.135
AAACCATA,-0.011
CGATTCCC,-0.0181
AATTCGTC,0.182
TAGACAAA,-0.0813

# Block 2
# Target: Interferon regulatory factor 7, full length, phosphomimetic (IRF7, Homo sapiens, UniProt Q92985, residues 1-503, S101K/S471D/S472D/S475D/S476D/S477D/S483D/S484D/S487D)
# Chain of UniProt Q92985 (whole entry, unmodified, looked up): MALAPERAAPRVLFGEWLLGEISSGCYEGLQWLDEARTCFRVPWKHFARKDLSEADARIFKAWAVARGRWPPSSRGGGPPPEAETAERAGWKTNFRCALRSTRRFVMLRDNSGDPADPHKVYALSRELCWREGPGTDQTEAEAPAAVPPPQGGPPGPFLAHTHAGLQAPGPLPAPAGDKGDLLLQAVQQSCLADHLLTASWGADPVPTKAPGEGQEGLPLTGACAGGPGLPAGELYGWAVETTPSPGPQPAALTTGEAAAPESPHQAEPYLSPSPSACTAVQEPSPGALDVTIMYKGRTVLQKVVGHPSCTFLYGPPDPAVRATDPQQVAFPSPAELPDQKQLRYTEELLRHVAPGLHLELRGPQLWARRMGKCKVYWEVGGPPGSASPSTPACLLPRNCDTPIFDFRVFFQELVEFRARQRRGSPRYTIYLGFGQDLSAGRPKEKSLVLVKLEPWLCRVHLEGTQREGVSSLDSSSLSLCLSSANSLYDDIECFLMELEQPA
# Method: protein-binding microarray
# Form: double-stranded DNA, one strand shown
# Matrix: in vitro
# Tested at: 250 nM
# Notes: 60-bp whole probe
# Added: salmon DNA 0.4 mg/ml
# Reference: random background probes
# Reading: higher = stronger binding
# Constant ends, left off below: GCCTAGCAC … GTCTTGATTCGCTTGACGCTGCTG
Sequence,log fluorescence
GACGAACTGGGTTATCGAGACGTGCTA,-0.511 z-score
TTAGGTATCAGTATCGATTAGTGCTAG,1.07 z-score
GACGGTTTCCTTTCCCCGACGTGCTAG,5.25 z-score
TCATTTCTACTTCTCTTACTGTGCTAG,2.08 z-score
GATGGTATCCTACTGCTGACGTGCTAG,-0.41 z-score
GACGGTTTCGACATTGGGGACGTGCTA,6.47 z-score
TTAGCACTGCTTATCCTTTAGTGCTAG,-0.131 z-score
TTAGAACTGAGGCTGGATTAGTGCTAG,-0.81 z-score
GACGGTCTCGGTTTCGGGCCGTGCTAG,6.09 z-score
GACCGTATCCTTATCCTGACGTGCTAG,0.592 z-score
GACGATATCGGTCTCGGGACGTGCTAG,0.274 z-score
GACGGTTTCAGGTTTCGGGACGTGCTA,5.56 z-score
TACCTTTTCACTTTACACACGTGCTAG,2.29 z-score
ATTTAGTATTACCTATTTCTGTGCTAG,0.71 z-score
GACGGTTTCGACTACCGGGACGTGCTA,5.45 z-score
TTAGAACTGGGGACTGGAGTAGTGCTA,-0.534 z-score
AACGGTTCCCTTTTCCTGACGTGCTAG,3.24 z-score
TTAGGTTTCCTTTACCTTTAGTGCTAG,2.14 z-score
GTCGGACTGGACTATCGGGACGTGCTA,-0.574 z-score

# Block 3
# Target: RNA binding protein fox-1 homolog 2, RRM domain, GST-SBP tag (RBFOX2, Homo sapiens, UniProt O43251-10, residues 100-194)
# Method: RNA Bind-n-Seq
# Form: RNA
# Matrix: in vitro
# Tested at: 365 nM
# Notes: natural RNA segment, single round, ends assumed
# Reference: no-protein control
# Reading: higher = stronger binding
# Construct (chain): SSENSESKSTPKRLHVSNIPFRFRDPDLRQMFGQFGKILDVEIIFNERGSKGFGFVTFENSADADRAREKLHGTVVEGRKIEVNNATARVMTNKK
Sequence,RBNS enrichment (R)
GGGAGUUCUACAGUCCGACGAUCCUCCCACCUGUUCAGGUUGUGGCAGCCUCUGUGCAGGUUGGAUGUGGAAAUAAAAGCAACCCUGUGUGAGAAUGCUGUCCUGAUCUCUUUGUAGCUCAGAGUGGCCUUGAUGGAAUUCUCGGGUGCCAA,0.422
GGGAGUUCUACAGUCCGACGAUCCUGAACUCCAGACCCCUCUUUGUGUUGGGCAGUGUCAUCUUGCUUACAAACUGUAAGACACAUUUUUUUGUGUGUUUGUUUUUGUUGUUGUUCUUUUGCAGCACUCACGCUGGAAUUCUCGGGUGCCAA,0.906
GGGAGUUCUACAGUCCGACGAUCGCCCAGUUGACCCGAAAAAUAGGACUUUUUAGAAUUGCAUUGCCACUUCUAAAAUCCUAGCAAUACUUAGAAUAACACAUCAGUGAGAUAAAUUUUACUCAAUUAUUUUAUGGAAUUCUCGGGUGCCAA,0.268
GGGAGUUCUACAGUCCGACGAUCAACAUUCUUCAUUGCAAGUAAAAGAUCCAUAAGUGGCAUUUUACACGGCUGCGAGUAUUGUUAUAUCUAAUCCUAUUUUAAAAGAUUUUUGGUAAUAUGAAGCUUGAAUAUGGAAUUCUCGGGUGCCAA,0.353
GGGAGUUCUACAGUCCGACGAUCAGGAUUUCCUGUAAGGUUUUUUGCAACCUAUUUAGUUUUUGUCAUUUAAAAUGCCUAACUUCUUAGGUACACAAACCCAUGGCUUUGUGUACUAGAACCAGAGCAAUCCAUGGAAUUCUCGGGUGCCAA,0.281
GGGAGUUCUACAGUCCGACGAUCAGGGUUCAUCUUUGCUUUAAUUUUGGCAAAAUGUUAAGCAUUUAUUUUGAGCUAAAAAUAAAAGUUAAUUUCAUACUAUAUAGAUUUUCUUUUUUAUCUUGUAUGUCCCCUGGAAUUCUCGGGUGCCAA,0.561
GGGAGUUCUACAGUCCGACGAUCGUGUUGUUGGUCUGCUUGGUGUGUGUGAUCGGGAAGAUAAGCUGGGAGGGGUCUCCUGCUGGGGUCCUGAUGCCUCUGUUUCCAAACAAGGUACAGGUUCAGUCCAGACUUGGAAUUCUCGGGUGCCAA,0.662
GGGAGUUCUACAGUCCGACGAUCGCAUGCGGCUAGUUCUAGUUAGUCUAUAUUGUUUGUUUUUUCAGUCUUCUUUUUCUAGCAUGCUUUACAUAGGAGAGAAUAAAGGGCUAUUUAAUAAGCAAUCCGGAUCUUGGAAUUCUCGGGUGCCAA,39.3
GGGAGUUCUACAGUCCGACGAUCUUCUGGAAUGUUAGGAAGAGCAGCUGAGACUUCUAUCCUGAUAGAAUAAAACAACUGCCUGAUUCUAGGGUUUUCCAUUAAUAGACAGCCAUUGUUCUCUCUGGACCACAUGGAAUUCUCGGGUGCCAA,1.68
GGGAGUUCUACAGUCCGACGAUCUGGGGCCCCUGGCCCAGAGUUGCUGUGCCGUGUCCAAGGGCCGUGCCCUUGCCCUUGGAGCUGCCGUGCCUGUGUCCUGAUGGCCCAAAUGUCAGGGUUCUGCUCGGCUUUGGAAUUCUCGGGUGCCAA,0.438
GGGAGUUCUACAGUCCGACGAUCACAAUGAGGACAGUGAGCUCCAGCCACUGUGGCCAUGGUGCCAUGUCCAUCCCCAGCCUCCCAGGGAAGUGCUGCGCUGUUUGUAUUUGUGGUCUGGGCUUUUCUGCCUAUGGAAUUCUCGGGUGCCAA,0.401
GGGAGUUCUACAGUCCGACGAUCGUUUUACACAUGGAAGCAGCUGAUGUAGAGACUUCAUAUAGGCAGCUGCAGUCCUAAAGUCUCAAGCUAGAGGGUGGGGGCCACGGAAGGAAGGCAGCCUUUCAGGUAGCUGGAAUUCUCGGGUGCCAA,0.567

# Block 4
# Target: ABI1, truncated, D143A, DHFR fusion (Arabidopsis thaliana)
# Method: DHFR PCA, deep sequencing
# Matrix: yeast
# Notes: methotrexate growth selection, single substitutions
# Added: (+)-ABA 200 µM
# Reference: wild-type fitted maximum
# Reading: higher = stronger binding
# Starting sequence: PYL1, truncated, DHFR fusion (Arabidopsis thaliana); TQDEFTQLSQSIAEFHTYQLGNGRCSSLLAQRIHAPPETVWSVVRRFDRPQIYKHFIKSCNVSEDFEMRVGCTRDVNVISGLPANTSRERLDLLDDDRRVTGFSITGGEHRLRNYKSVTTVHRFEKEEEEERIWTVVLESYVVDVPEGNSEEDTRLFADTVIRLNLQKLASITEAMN
Change,relative binding score
G23S,95.5%
K168Q,97%
S9A,99.8%
G107M,62.5%
S117A,97%
R132G,119%
V40D,-45.7%
W41E,3.91%
E147Q,93.6%
V43Q,70.9%
G21R,101%
F56V,18.5%
F56G,10.4%
N85Q,108%
E130F,95.3%
E130A,105%
F103H,40.1%
Q2P,101%
V121N,-0.992%
S87P,27%
T101I,106%
V145W,18.1%
K168W,96.1%
A158L,101%
I172E,71.8%

# A few entries again (block 3):
Sequence,RBNS enrichment (R)
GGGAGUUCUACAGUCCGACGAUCCUCCCACCUGUUCAGGUUGUGGCAGCCUCUGUGCAGGUUGGAUGUGGAAAUAAAAGCAACCCUGUGUGAGAAUGCUGUCCUGAUCUCUUUGUAGCUCAGAGUGGCCUUGAUGGAAUUCUCGGGUGCCAA,0.422
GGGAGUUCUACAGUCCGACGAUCCUGAACUCCAGACCCCUCUUUGUGUUGGGCAGUGUCAUCUUGCUUACAAACUGUAAGACACAUUUUUUUGUGUGUUUGUUUUUGUUGUUGUUCUUUUGCAGCACUCACGCUGGAAUUCUCGGGUGCCAA,0.906
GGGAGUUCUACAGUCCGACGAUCGCCCAGUUGACCCGAAAAAUAGGACUUUUUAGAAUUGCAUUGCCACUUCUAAAAUCCUAGCAAUACUUAGAAUAACACAUCAGUGAGAUAAAUUUUACUCAAUUAUUUUAUGGAAUUCUCGGGUGCCAA,0.268
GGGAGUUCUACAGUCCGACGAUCAACAUUCUUCAUUGCAAGUAAAAGAUCCAUAAGUGGCAUUUUACACGGCUGCGAGUAUUGUUAUAUCUAAUCCUAUUUUAAAAGAUUUUUGGUAAUAUGAAGCUUGAAUAUGGAAUUCUCGGGUGCCAA,0.353
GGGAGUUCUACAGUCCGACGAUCAGGAUUUCCUGUAAGGUUUUUUGCAACCUAUUUAGUUUUUGUCAUUUAAAAUGCCUAACUUCUUAGGUACACAAACCCAUGGCUUUGUGUACUAGAACCAGAGCAAUCCAUGGAAUUCUCGGGUGCCAA,0.281
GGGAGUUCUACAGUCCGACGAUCAGGGUUCAUCUUUGCUUUAAUUUUGGCAAAAUGUUAAGCAUUUAUUUUGAGCUAAAAAUAAAAGUUAAUUUCAUACUAUAUAGAUUUUCUUUUUUAUCUUGUAUGUCCCCUGGAAUUCUCGGGUGCCAA,0.561
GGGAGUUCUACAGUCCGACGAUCGUGUUGUUGGUCUGCUUGGUGUGUGUGAUCGGGAAGAUAAGCUGGGAGGGGUCUCCUGCUGGGGUCCUGAUGCCUCUGUUUCCAAACAAGGUACAGGUUCAGUCCAGACUUGGAAUUCUCGGGUGCCAA,0.662
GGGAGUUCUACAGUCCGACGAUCGCAUGCGGCUAGUUCUAGUUAGUCUAUAUUGUUUGUUUUUUCAGUCUUCUUUUUCUAGCAUGCUUUACAUAGGAGAGAAUAAAGGGCUAUUUAAUAAGCAAUCCGGAUCUUGGAAUUCUCGGGUGCCAA,39.3
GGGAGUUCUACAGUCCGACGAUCUUCUGGAAUGUUAGGAAGAGCAGCUGAGACUUCUAUCCUGAUAGAAUAAAACAACUGCCUGAUUCUAGGGUUUUCCAUUAAUAGACAGCCAUUGUUCUCUCUGGACCACAUGGAAUUCUCGGGUGCCAA,1.68
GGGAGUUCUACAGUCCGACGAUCUGGGGCCCCUGGCCCAGAGUUGCUGUGCCGUGUCCAAGGGCCGUGCCCUUGCCCUUGGAGCUGCCGUGCCUGUGUCCUGAUGGCCCAAAUGUCAGGGUUCUGCUCGGCUUUGGAAUUCUCGGGUGCCAA,0.438
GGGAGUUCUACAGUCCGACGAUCACAAUGAGGACAGUGAGCUCCAGCCACUGUGGCCAUGGUGCCAUGUCCAUCCCCAGCCUCCCAGGGAAGUGCUGCGCUGUUUGUAUUUGUGGUCUGGGCUUUUCUGCCUAUGGAAUUCUCGGGUGCCAA,0.401
